Published values gathered from unrelated publications.
Numbered parts are unrelated; each lists some results of a single study.

Series 1 — technique: protein-binding microarray; molecule type: double-stranded DNA, one strand shown; medium: in vitro; concentration: 2540 nM top; setting: 60-bp whole probe; with: salmon DNA 0.4 mg/ml; baseline: random background probes; reading: higher = stronger binding; constant ends, left off below: GCCTAGCAC … GTCTTGATTCGCTTGACGCTGCTG
Target: Interferon regulatory factor 3, full length, phosphomimetic (IRF3, Homo sapiens, UniProt Q14653, residues 1-427, S386D/S396D/S398D/S402D/T404D/S405D)
Residues (chain): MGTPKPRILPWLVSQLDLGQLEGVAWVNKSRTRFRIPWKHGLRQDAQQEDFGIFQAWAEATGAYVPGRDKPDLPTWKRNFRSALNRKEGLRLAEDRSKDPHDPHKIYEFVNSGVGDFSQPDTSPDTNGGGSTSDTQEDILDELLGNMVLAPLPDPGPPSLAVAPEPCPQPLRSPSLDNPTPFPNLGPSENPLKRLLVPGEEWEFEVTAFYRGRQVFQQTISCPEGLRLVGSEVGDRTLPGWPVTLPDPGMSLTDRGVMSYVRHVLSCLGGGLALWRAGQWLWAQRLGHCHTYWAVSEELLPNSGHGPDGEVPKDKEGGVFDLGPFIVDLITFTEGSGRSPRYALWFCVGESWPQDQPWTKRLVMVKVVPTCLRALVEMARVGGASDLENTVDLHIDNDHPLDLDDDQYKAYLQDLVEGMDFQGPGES
| Oligonucleotide | fitted relative affinity [z-score] |
| --- | --- |
| TCAGCTTTCTTTAACTCACTGTGCTAG | 0.851 |
| GACGGTATCGACTATCGGCACGTGCTA | 0.491 |
| TCATCTTTCTGTTTTCTACTGTGCTAG | 3.26 |
| GACGAACTGGGGTTTCGAGTCGTGCTA | 0.725 |
| GAAGATATCAGTCTCGAGACGTGCTAG | 0.887 |

Series 2 — technique: RNA Bind-n-Seq; molecule type: RNA; medium: in vitro; concentration: 365 nM; baseline: no-protein control; reading: higher = stronger binding
Target: RNA binding protein fox-1 homolog 2, RRM domain, GST-SBP tag (RBFOX2, Homo sapiens, UniProt O43251-10, residues 100-194)
Setting: natural RNA segment, single round, ends assumed
Constant ends, left off below: GGGAGUUCUACAGUCCGACGAUC … UGGAAUUCUCGGGUGCCAA
Target sequence (chain): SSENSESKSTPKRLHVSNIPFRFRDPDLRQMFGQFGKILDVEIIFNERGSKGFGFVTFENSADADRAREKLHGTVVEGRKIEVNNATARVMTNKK
| Oligonucleotide | RBNS enrichment (R) |
| --- | --- |
| AUCUGCGCAGCUCUGGUACCCUCUGUGGGUGCCAUCUCUACCUCUGACACAGACUGCCUGCCUUGAAGCUGAGAAGGCACAGGGCAAGGAGCCAAGGACCACAGAGCCUC | 0.25 |
| GCCUAAUCAGCCCACCAUGUUCUCCACUGAAAAAUCCUCUUUCUUUGGGGUUUUUCUUUCUUUCUUUUUUGAUUUUGCACUGGACGGUGACGUCAGCCAUGUACAGGAUC | 0.44 |
| ACUGGGGGUUAUGCAGCGUGGUCCAGCCGGAGCGGCCAGCAUGACCAGCUGUCCAGGGGCUGCCUCCUGCCUUUUUUUUUGUAAAGACAAGACCCUUGGGAGUUUUCAUU | 0.556 |
| AAGUCUGUGAGGGGAGAGGUUUUACAAGCCAGACAGGCCUGGGGGACUGCAGUCCCCAAGGAGACCCUGCCACAUGCUGGCCCUUUGAGUGAGAAUGCUGCAUCUUUCUA | 2.21 |
| UUAUUUUAGAUCCCAGAGAAAUCAGGUGUGAUUAGUUCUCCAGGCAUGAAUGCAUCGUCCCUUUAUCUGUAAGAACCCUUAGUGUCCUGUAGGGGGACAGAAUGGGGUGG | 1.3 |
| CUGCAGCGCGUGCGCGGUGAGAGGCCCUUUUUGAGCCUGUUUACUCCUGUGGCCUUGGGCAGAACAGUAAAUACUCUGUGCACGGAGGAAAGACAUGCCCAAGAGGAAGG | 0.519 |

Series 3 — technique: protein binding microarray; molecule type: double-stranded DNA, one strand shown; medium: in vitro; concentration: not given; baseline: not given; reading: higher = stronger binding
Target: Histone acetyltransferase KAT6A, both winged helices, GST fusion (KAT6A, Homo sapiens, UniProt Q92794, residues 1-181)
Setting: 8-mer, flanks averaged, mean of 2 arrays, mostly near background
Target sequence (chain): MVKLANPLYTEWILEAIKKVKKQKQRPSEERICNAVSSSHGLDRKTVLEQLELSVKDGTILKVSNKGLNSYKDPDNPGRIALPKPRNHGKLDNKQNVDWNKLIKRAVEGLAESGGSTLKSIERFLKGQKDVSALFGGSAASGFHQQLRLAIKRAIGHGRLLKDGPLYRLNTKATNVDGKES
| Oligonucleotide | E-score |
| --- | --- |
| CGAGCAAA | -0.0876 |
| CGACGTCC | 0.128 |
| CCGACAGA | 0.104 |
| ACGCGGAC | 0.309 |
| GCGCGCTA | 0.387 |

Other studies, line by line
| Molecule | target | assay | system | conditions | how to read | measurement | result |
| --- | --- | --- | --- | --- | --- | --- | --- |
| PhoQ, residues 284 288 289 292 302 303 GANMMA | PhoP, residues 12 14 15 18 19 LHSVW (Escherichia coli, UniProt P23836) | Sort-seq, refers to: YFP reporter | E. coli | PhoQ-PhoP variant library, with: 10 µM Mg2+ | baseline: high Mg2+ state, higher = stronger signaling | fold induction | 7.35 |
